Results gathered from unrelated publications.
A part holds a random share of what one study measured.

Series 1
Target: Ras GTPase-activating protein-binding protein 1, full length (G3BP1, Homo sapiens, UniProt Q13283)
Chain of UniProt Q13283 (whole entry, looked up): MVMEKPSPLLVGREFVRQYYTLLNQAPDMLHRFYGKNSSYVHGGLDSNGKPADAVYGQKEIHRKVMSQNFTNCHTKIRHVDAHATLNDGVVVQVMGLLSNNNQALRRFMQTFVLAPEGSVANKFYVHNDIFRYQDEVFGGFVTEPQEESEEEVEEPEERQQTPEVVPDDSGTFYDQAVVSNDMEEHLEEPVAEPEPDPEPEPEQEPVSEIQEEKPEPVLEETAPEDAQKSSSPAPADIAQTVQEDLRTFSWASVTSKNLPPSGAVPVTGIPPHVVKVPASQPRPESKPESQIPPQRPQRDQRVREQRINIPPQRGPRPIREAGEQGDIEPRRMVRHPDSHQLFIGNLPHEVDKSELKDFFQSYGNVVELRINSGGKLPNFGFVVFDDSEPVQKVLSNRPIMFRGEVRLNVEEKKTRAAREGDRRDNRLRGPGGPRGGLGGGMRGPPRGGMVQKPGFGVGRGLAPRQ
Method: RNA Bind-n-Seq
Form: RNA
Matrix: in vitro
Tested at: 200 nM
Setting: whole 134-nt RNA, ends assumed
With: 150 mM KCl
Reference: input library
Reading: higher = stronger binding
Endpoint: log2 enrichment
Constant ends, left off below: GGGAGUUCUACAGUCCGACGAUC … UGGAAUUCUCGGGUGUCAAGG
UCCUCAAGUCCUGUGCUACACAUCGUAUGUACCGAAUCGGGAGGAGGGAGGGAAAGUAUUAUGUUACGCCGUUCGGAUCUGCACUUCCAG: 1.44
UCCUAGUAUUCUGGCCGUUCAGAGAUCUGCAAUCCUCAAGAAGCAGCAACAGCAGCAGCAGCAACAACAACAUCAAGCCUCAUCUAAUAG: 0.26
CCUGUGCUACACAUCGUAUGUACCGAAUCGGGUUUUUUUGGGUUUUUUUGGGAAAAAGGGAAAGUAUUAUGUUACGCCGUUCGGAUCUGC: -1.07
CAAGUCCUGUGCUACACAUCGUAUGUACCGAAUCGGGAAAGGGUUUGGGAAAGGGAAAGUAUUAUGUUACGCCGUUCGGAUCUGCACUUC: 0.612
CCAGAGCCAGAGAGCUUGGGCCCUGGGACGCCUGGGUUCCCCGAGCAGGAGGAAGACGAACUUCACCGCACCCUGGGCGUGGAGCGGUUU: -0.55
UAUUGGACACAGUGCCCCGCUGAACAGCAGCUGUUCCCAGCGCCAGAGGACCCCACAGCCACAGUAGGAGCUUUGCGACCCCUACGCAAC: -0.96
ACCAUGCAGGUGGGCAUCUUUGGGAAGUGGGGCAAGGGGGGGAUAGGGAGGGGGGUAACACAAAGGGAACAGGUGGUCCCAGGUCGUUUC: 1.23
GCAGGAAGUAAAAACAAAUGGAAAUGCUUCGGAUAGUGGCGGGGGUGGGGGUUGCUAAGGAAAGGGUGGGAUGGGAGUGGGUAAAGAGUU: 0.943
GCAGGAAGUAAAAACAAAUGGAAAUGCUUCGGAUAGUGGCAGGGGUGGGGCUUGCUAAGGAAAGGGUGGGAUGGGAGUGGGUAAAGAGUU: 0.911
GAGCAAAGAGCCAUUCAGCUUCAGUCUUUACAUACCAUGAAUAAAACAUUAAAACAUCAUAUGGAGAAGUUUACAUGGUGAUUGUUCACC: -0.599
UGGCAGGAAAGAGUUCCUAGAGAGAGAAGACAAAGACAGUCUGUGUUGCAAAAGAAGCCCAAGGCUGAAGAUUUAAGAACUGAAUGUGCA: -0.66
AAGUCCUGUGCUACACAUCGUAUGUACCGAAUCGGGAGGGUUUUUGGGAAAAAGGGAAAGUAUUAUGUUACGCCGUUCGGAUCUGCACUU: -0.113
CAAGUCCUGUGCUACACAUCGUAUGUACCGAAUCGGGUUUUGGUUUUGGUUUUGGAAAGUAUUAUGUUACGCCGUUCGGAUCUGCACUUC: -1.16
CCUCAAGUCCUGUGCUACACAUCGUAUGUACCGAAUCGGCCGGGCCGGCCGGGAAAGUAUUAUGUUACGCCGUUCGGAUCUGCACUUCCA: -0.398

Series 2
Target: Centromere-binding protein 1, full length, N-terminal tag (CBF1, Saccharomyces cerevisiae, UniProt P17106, residues 1-351)
Chain of UniProt P17106 (whole entry, looked up): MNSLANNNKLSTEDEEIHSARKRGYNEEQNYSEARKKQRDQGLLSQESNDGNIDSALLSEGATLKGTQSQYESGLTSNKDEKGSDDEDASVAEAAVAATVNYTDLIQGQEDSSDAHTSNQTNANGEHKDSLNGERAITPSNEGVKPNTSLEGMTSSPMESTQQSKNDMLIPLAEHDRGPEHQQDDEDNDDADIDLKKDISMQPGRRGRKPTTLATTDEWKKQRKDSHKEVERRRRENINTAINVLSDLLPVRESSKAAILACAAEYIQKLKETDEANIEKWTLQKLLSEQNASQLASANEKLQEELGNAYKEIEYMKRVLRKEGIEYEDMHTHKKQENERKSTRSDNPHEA
Method: protein-binding microarray
Form: double-stranded DNA, one strand shown
Matrix: in vitro
Tested at: 0.8 µM
Setting: whole 60-bp probe, no competitor
Reading: higher = stronger binding
Endpoint: fluorescence intensity
Constant ends, left off below: … GTCTTGATTCGCTTGACGCTGCTG
GAAATACGCAACAGTCACGTTATATTCATGCAATAG: 1580 a.u.
GAAGCCGAGAGGAAGCGCGTGATGAAAGCACGATAG: 1100 a.u.
GAAACTAGCCATTGCCACGTAAAATGGCAAGACTAG: 477 a.u.
CTATCATTGAAATTTTACGTGACACCATCATTTTTC: 589 a.u.
GAATGAGACCGGAATCGCATCAGGTCTTATTAATAG: 480 a.u.
GAATATCATTTAGGTGACGCCTTGTTCTAAGGCTAG: 493 a.u.
TGTACGAAGCTATACTGATGCATTATAGTAGTTAGG: 507 a.u.
CTACCTTTGCGTGTGCACGTTTGTTTACTTTCTTTC: 682 a.u.
TGTACGAAGCTATATCATGTGTGTATAGTAGTTAGG: 629 a.u.
CTAAATAAGTAACATCATGTGTCATTTTGCACGTTC: 931 a.u.
CTAATTTCATATTTTCATCTGATTTTTTTTCTGTTC: 483 a.u.
CTATTTGTATATGATAGTGTGATTTAGCGATATTTC: 607 a.u.
CTATTGTTGACTTACCACATGTGCAGCCGCCTTTTC: 868 a.u.
CTAGTTCCTACAGTTCACGCGCACCTCTTTCTGTTC: 655 a.u.
CCTAACTACTATAAGTTCGTGCTATAGCTTCGTACA: 481 a.u.
CTAAATAACCTAATTCACGTTACCCACCTTTTTTTC: 605 a.u.
GAAGTTAGAGGCTATAGCATCAGATATACAAAATAG: 477 a.u.
CTACAGAGAGGCAATTGCGTGATTAATTCGGAATTC: 574 a.u.
CTACCACTATAATCAGCTGTTATGACTTAGCCATTC: 581 a.u.
CCTAACTACTATAGTCACAATTAATAGCTTCGTACA: 561 a.u.
CTAGTTGAGCAGTGCCCCGTGGAAACGTAAACTTTC: 502 a.u.
GAACAACTCGTACGTGATGGGGATTCTAAACCTTAG: 549 a.u.
CTATAATTGAACATTCTCGTGCGTTTAAACGTCTTC: 645 a.u.
TGTACGAAGCTATCGCACGCATCTATAGTAGTTAGG: 527 a.u.
GAAAGGTTGATGAATCTGGTGATGCAGGGGTATTAG: 543 a.u.

Series 3
Target: RING finger protein unkempt homolog, zinc fingers 1-6, GST-SBP tag (UNK, Homo sapiens, UniProt Q9C0B0, residues 30-357)
Method: RNA Bind-n-Seq
Form: RNA
Matrix: in vitro
Tested at: not given
Setting: RNA with constant flanks, ends assumed
Reference: input RNA pool
Reading: higher = stronger binding
Endpoint: bound/input enrichment
Constant ends, left off below: GGGAGUUCUACAGUCCGACGAUC … CAACAGAGGAUUGAGCAUCA
Target sequence (chain): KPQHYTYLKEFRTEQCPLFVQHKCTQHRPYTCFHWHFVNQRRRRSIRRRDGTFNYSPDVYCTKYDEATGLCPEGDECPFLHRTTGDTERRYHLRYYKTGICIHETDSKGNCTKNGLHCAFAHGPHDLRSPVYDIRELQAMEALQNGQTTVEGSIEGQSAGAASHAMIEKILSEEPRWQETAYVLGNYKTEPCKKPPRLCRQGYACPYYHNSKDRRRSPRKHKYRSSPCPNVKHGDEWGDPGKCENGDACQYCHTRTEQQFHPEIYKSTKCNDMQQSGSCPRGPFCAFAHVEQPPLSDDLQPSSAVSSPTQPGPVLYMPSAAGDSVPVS
UCACUGCAGUCUUCCCUGGGUCUUCCCUUCAAAUGCCCAUGGCGUUUAUCCUUCUCCCUCUCCCGAAAUGUACUCGACUGUUAUAACGAGGGAGUGUGAUUGGGUCUCUGUAGGUCUCUG: 0.175 ratio
UUUGUUACCUAACCAACCUUCACUGAAAGGCAAAUUUAGUUCAGGAGGUUAGUUUUCCGCCCGCUUUGGAAGUAAGCCUUUAUUUAUUACUUUUUGGAGGAAAUCAGAGAAGUGUCAAUG: 0.349 ratio
GAGGAGGACAAAGAGCCCCUCAUCGAGCUCUUCGUCAAGGCUGGCAGUGAUGGUGAAAGCACCGGAAACUGCCCCUUUUCCCAGAGGCUCUUCAUGAUUCUUUGGCUCAAAGGAGUUGUA: 0.0586 ratio
UGCCAUUUGGUUCCAAGUAGGUGCAGGACAAAAUGGAACUGGGUUCUACAUGCUGGGUUGACCCGGUUACACAUUUUAGCCUAUGAAGUUAGUGGCCUAUAAAACUUAAUCCUUAACGUU: 0.879 ratio
AAUCACUUUGAAGUCCUCCCUCCCGAGCUGGGAGACUGCCGGGCUCUGAAGCGAGCCGGGCCCGUUGUGGAAGAUGCUCUGUUUGAGACUCUGCCCUCAGAUGUCCGGGAGCAGAUGAAA: 0.154 ratio
CAUGAAGGAACACUGGAUGACUUUACAGUUUUAAACAGACGCAAAAAGGUAGCCAGCAAUGCCGCAUCAGCAGUGAAAAGGCCAUUUAAUUUCAUGGCAAAUUUUCCUUGUCCACCUUCA: 0.164 ratio
GGGUGGGGGUUGUCAUUGCCAAUUGAGCUGCUGAUUCUUAUGAAUCACAUUCAGAACUCGCACCGGGUUGACACUGUAAGGGGUGGGGAAAUCUAGCUAUUUUUUUUUCCCCAGCCCAUU: 0.419 ratio
UUCUUCACCCGGAACCAUCUGCCUGUACCUAACCUGGAUCCAGACACCUAUCGCUUACACGCCGCCGGAGCACCUGGGGGUCAGUCACUGUCUCUUUCCCUGGAUGACUUGCACAACUUU: 0.141 ratio
CACCGCAACCUUUCCUUUUUCCCCCAGUGAUUCUGAAAAACCCCUCUUCCCUUCAGCUUGCUCCGAUGUUCCAAAUUUAGUAAGCUUAAGGCGGCCUACAGAAGAAAAAGAAAAAAAAGG: 0.993 ratio
ACCAGAGAUGAGACCAACUAUGGCAUACCACAGCGUGCUCUGAGAGGUCACUCCCACUUCGUCCGUGAUGUUGUUAUCUCCUCUGAUGGUCAGUUUGCCCUCUCGGGCUCCUGGGACGGA: 0.0896 ratio
UUCCCAAGACCUUUAUAGGUGAUUUUGUUUUCUGGGCUCCUUAACUUCAUAAAUAGCCCGUAUCUUCCAGCAGUAGUAACAGUCUGGAUAACUUCUUCCAUAUCCCUCCCUCUUUGUUUU: 0.819 ratio

Series 4
Target: RNA binding protein fox-1 homolog 2, RRM domain, GST-SBP tag (RBFOX2, Homo sapiens, UniProt O43251-10, residues 100-194)
Method: RNA Bind-n-Seq
Form: RNA
Matrix: in vitro
Tested at: 365 nM
Setting: natural RNA segment, single round, ends assumed
Reference: no-protein control
Reading: higher = stronger binding
Endpoint: RBNS enrichment (R)
Constant ends, left off below: GGGAGUUCUACAGUCCGACGAUC … UGGAAUUCUCGGGUGCCAA
Residues (chain): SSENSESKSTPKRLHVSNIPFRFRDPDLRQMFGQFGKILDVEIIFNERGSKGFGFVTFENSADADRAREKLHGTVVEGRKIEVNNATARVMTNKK
GGGUCGCACAGUAGGCAAGAGUCAGGGACACCCUCCAUUCCCACUGUUAGGAUUCCCACACGAACACCAAGCUACUCAGCCAUAACAUAUGCAGAGGACUUGCUCAGACU: 0.291
UGCUGGCGGGCUGAGGGUGACAGUCACGUCCGUUUCUUCUGUAUUAGAAGGCUGCGGUGAUUCAAUUAGAUUGUCCCACUGCUGAGACCUGUAGGGCAGCUUCUAACAUG: 0.287
UGGUCACCUUCAUGGUGACCUCUCCAUUAUUCUGUCUCACUUGGAACCAUUUUCAGUUUAUUUACUAUGCAAUAGACAGUCCUUGUUUUGUACUCAGCUAGCUUUGAUUU: 0.447
AGCCUUCAGCCCUGCUGCCCUGCCUGUGGGAGCAGCUUUGACUCCAGUCCAGAAGGGUUUCUGCAGACUGUGUUGGGUGAGACGCAGAAAGGAUGAAAUCUCAGAACACA: 0.74
CCUGGCCACUGGGUGCCACCCAGCCUGUGUGCCCUCCCUGGGGCUGAGGAGGCAGGCGGCUGCUAGUUGUGGCCCUUCCUGGAAGGAGAGGCCUGCAGGGCUCGACCCUG: 0.228
AUGCAUACAUUACAUACCUAUAUAUAAACUUGUGGUAUAACCAUAGACCAUAGCUGCAGGUUAACCAAUUAGUUACUAUCGUAGAGUAAUAUAUAUUCAGAAUAAUAAAC: 0.794
CAAGCGUAGACGCCCUUCAGCUGUAGCACAUCUUCAUUUUAUAGUAUCUAUUCAGUUUGUUCUUACUAACUUCUGGUCUUUUAAAAGACGUCAACGGAGGAACCUCGGUU: 0.895
CAUCACAGAUGGGAGAAGGCCAUGCCAGCCACGUCCGCCGAGGGGCGCCAGCCUGAAGCUGCCAGGCCCUGAGGUUCAGACCCUGGACCCCAUAGCUGGAGGCCUGUGGU: 0.179
UUCCCUUGGGCGCCAAGCAACCUGCCAGGUAGCCAGUCCCUCUGUUACAAGCCUUUGCAUCUGGAUAGGGAAAGGGGUGGAGACAUACAGUCUGCUUUGUGUUGAAACCC: 0.318
UUUGUUUCUUAGAACUUUAACAUUUAUUUUAAUCCUGAAGACACUUUUUUGAUUGUGUUUCGUAAGAGACAACAUGGCCUCCUAAGGUGCAAUCCUGCCGCUAUAGUGAG: 0.686
UGUGGAGAAGGGGAAGGGAGGGACAGCUCACUGGUUCCUUCUGCAGUACCUCUGUGGUUAAAAAUGGAAACUGUUCUCCUCCCCAGCCCCACUCCCUGUUCCCUACCCAU: 0.301
CAGUUCUCAUUACUGUUAUUUAUUAGCUGUAGCAUUCUCUGUCUCCUCUCUCUCCUCCUUUGACCUUCUCCUCGACCAGCCAUCAUGACAUUUACCAUGAAUUUACUUCC: 0.584

For quick reference, copied from above (series 1):
UCCUAGUAUUCUGGCCGUUCAGAGAUCUGCAAUCCUCAAGAAGCAGCAACAGCAGCAGCAGCAACAACAACAUCAAGCCUCAUCUAAUAG: 0.26
CCUGUGCUACACAUCGUAUGUACCGAAUCGGGUUUUUUUGGGUUUUUUUGGGAAAAAGGGAAAGUAUUAUGUUACGCCGUUCGGAUCUGC: -1.07
CAAGUCCUGUGCUACACAUCGUAUGUACCGAAUCGGGAAAGGGUUUGGGAAAGGGAAAGUAUUAUGUUACGCCGUUCGGAUCUGCACUUC: 0.612
CCAGAGCCAGAGAGCUUGGGCCCUGGGACGCCUGGGUUCCCCGAGCAGGAGGAAGACGAACUUCACCGCACCCUGGGCGUGGAGCGGUUU: -0.55
UAUUGGACACAGUGCCCCGCUGAACAGCAGCUGUUCCCAGCGCCAGAGGACCCCACAGCCACAGUAGGAGCUUUGCGACCCCUACGCAAC: -0.96
